# Published values of several laboratories.
# Compare with care: the assays were run in different laboratories. Several values in a cell are separate wells, animals, samples, runs or records. ± marks the error that the study gave.
# IDE: Insulin-degrading enzyme (IDE, Homo sapiens, UniProt P14735)
SMILES,tested on,test,setting,how to read,endpoint,value
CC/C(=N\NC(=O)NCc1cccc(O)c1)c1ccc(O)c(C)c1O,SK-OV-3,"Western blot, item: phospho-YAP","10 µM, 1 h, 3D gellan gum culture, unit not given",reference: total YAP,protein level,0.21 ± 0.1
CC(=O)Nc1ccc(NC(=S)NC(=O)c2ccc(C(C)(C)C)cc2)cc1,HBL-1,,"0.1 µM, 120 h",,viability,119%
NS(=O)(=O)c1nnc(NC(=O)C2CCC3(CCCCC3)C2)s1 (centres unmarked),Enterococcus faecium γ-carbonic anhydrase,"CO2 hydration, inhibitor, stopped-flow kinetics",,,Ki,0.199 µM
Cn1cc(Nc2nccc(-c3ccc4c(c3)CN(C3COC3)CC[C@H]4NC(=O)c3cn(C(C)(C)C)nn3)n2)cn1,mouse splenic B cells,item: FGF signalling,"30 mg/kg, IgD-activated in vivo","reference: vehicle, direction not given",pathway activation z-score,3.46
Cn1cc(-c2ccc(-c3cncc(Cl)c3N3CCC4(CCNC4=O)CC3)cc2)cn1,COLO 205,"gene expression, microarray, item: SERPINH1 mRNA","concentration not given, 6 h",reference: untreated cells,log2 fold change,2.05
COc1cnc2cccc(N3CCc4c(cc(Cn5ccnc5C)cc4-c4cn(C)nc4C(F)(F)F)C3=O)c2c1,HCC95,"cell growth, inhibitor",120 h,,EC50,> 30 µM
CC(=O)Nc1ccc(C(=O)Nc2ccccc2N)cc1,HBL-1,,"0.1 µM, 120 h",,viability,62%
Cc1cc(Nc2ncc(Cl)c(Nc3ccccc3S(=O)(=O)C(C)C)n2)c(OC(C)C)cc1C1CCNCC1,CLB-BAR,"phosphoproteomics LC-MS/MS, item: GAB1 phosphorylation","200 nM, 60 min",reference: untreated,log2 fold change,-6.24
O=C(CCc1cc(C(=O)c2ccc(OC3CCCC3)cc2O)ccc1OCc1ccc2c(O)noc2c1)NCCOCCOCCOCCOCCOCCOCCNc1cccc2c1C(=O)N(C1CCC(=O)NC1=O)C2=O (centres unmarked),FaDu cancer stem cells,tumorsphere formation,,,ED50,8.5 µM
COc1cc(/C=C/C(=O)N2CCC=CC2=O)cc(OC)c1OC,MDA-MB-468,"quantitative RT-PCR, item: FOXM1","30 µM, 8 h",reference: untreated cells,mRNA level,65.5 ± 2.6%
CCCNC(=O)Nc1ccc(Oc2ncnc3cc(OC)c(OC)cc23)cc1Cl,HeLa expressing Ub(G76V)-GFP,"Ub(G76V)-GFP degradation, cycloheximide chase",12 µM,,inhibition,1%
CC[S+]([O-])c1nc(-c2ccccc2)cc(C(F)(F)F)n1 (centres unmarked),HeLa Kyoto,"RelA nuclear import, high content imaging","0.16 µM, 3 h, with: 1 µM PMA, 60 min",,cells with nuclear RelA,79.1% and 74.1%
O=C(C[C@@H](C(F)F)n1ccc(F)n1)N1CCC(O)(Cn2cnc3c(cnn3-c3ccc(F)cc3)c2=O)CC1,CHP-212 resistant cells (pooled),annexin V-PI flow cytometry,"0.3 µM, 48 h",,viable cells (annexin V-/PI-),87.2% and 83.2% and 84.8%
Nc1ccn([C@@H]2O[C@H](CO)[C@@H](O)C2(F)F)c(=O)n1,HBL-1,,"0.5 µM, 120 h",,viability,7.19%
O=C(C1CCOCC1)N1CC(=O)N2[C@H](CO)[C@H](c3ccc(C#Cc4cccc(F)c4)cc3)[C@H]2C1,IDE,"enzyme activity, inhibitor, fluorogenic kinetic",with: Mca-RPPGFSAFK(Dnp)-OH substrate,,EC50,5.3 µM
CC(C)(C)OC(=O)Nc1ccc(-c2cc(C(=O)NCCCCCCC(=O)NO)no2)cc1,HBL-1,,"0.1 µM, 120 h",,viability,10.7%
COc1ccc(-n2nc(C(C)=O)s/c2=N\N=C(/C)c2ccc(NC(=O)c3ccc(C)cc3)cc2)cc1,HepG2,,0.312 µM,,toxicity,78.8%
O=C(/C=C/C=C/C=C/C1CCCCC1)NC1=C[C@@](O)(/C=C/C=C/C=C/C(=O)NC2=C(O)CCC2=O)[C@@H]2O[C@@H]2C1=O,KYSE-150,"cell growth, CellTiter-Glo",78 h,,GI50,8.87 µM
O=P(O)(O)C(O)(Cn1ccnc1)P(=O)(O)O,MDA-MB-231,AlamarBlue,"7.5 µM, 48 h",reference: control,viability,95 ± 1%
CC[n+]1c(/C=C/N(C)c2ccccc2)n(-c2ccccc2)c2ccc(-c3nc4ccccc4s3)cc21.[I-],HeLa expressing Ub(G76V)-GFP,"Ub(G76V)-GFP degradation, inhibitor, cycloheximide chase",12 µM,,inhibition,61%
CCCCc1nc2cc(/C=C/C(=O)NO)ccc2n1CCN(CC)CC,HBL-1,,"0.5 µM, 120 h",,viability,1.95%
COc1cc2c(Oc3ccc(NC(=O)C4(C(=O)Nc5ccc(F)cc5)CC4)cc3F)ccnc2cc1OCCCN1CCOCC1,BT-12,"cell viability, MTT","10 µM, 72 h",,inhibition,95.4%
CCn1cc(-c2cc(Cn3ccoc3=N)cc3c2CCN([C@@H](C)c2cc(OC)ccn2)C3=O)c(C(F)(F)F)n1,HSC-3,"cell growth, inhibitor",120 h,,EC50,> 30 µM
O=C(O)CNC(=O)C(=O)O,HBL-1,,"0.1 µM, 120 h",,viability,110%
OC[C@H]1[C@@H](c2ccc(C#Cc3ccccc3)cc2)[C@@H]2CN(Cc3cncnc3)CCCCN12,IDE,"enzyme activity, inhibitor, fluorogenic kinetic",with: Mca-RPPGFSAFK(Dnp)-OH substrate,,EC50,4.3 µM
CCC1=C[C@@H]2CN(C1)Cc1c([nH]c3ccccc13)[C@@](C(=O)OC)(c1cc3c(cc1OC)N(C)[C@H]1[C@@](O)(C(=O)OC)[C@H](OC(C)=O)[C@]4(CC)C=CCN5CC[C@]31[C@@H]54)C2,BT-12,"cell viability, MTT","10 µM, 72 h",,inhibition,86.7%
